Experimental data of several laboratories.
A part holds a random share of what one study measured. Substitutions count along the parent as printed.

Block 1
Target: ABI1, truncated, D143A, DHFR fusion (Arabidopsis thaliana)
Technique: DHFR PCA, deep sequencing
Medium: yeast
Notes: methotrexate growth selection, single substitutions
Together with: (+)-ABA 200 µM
Relative to: wild-type fitted maximum
Direction: higher = stronger binding
Starting sequence: PYL1, truncated, DHFR fusion (Arabidopsis thaliana); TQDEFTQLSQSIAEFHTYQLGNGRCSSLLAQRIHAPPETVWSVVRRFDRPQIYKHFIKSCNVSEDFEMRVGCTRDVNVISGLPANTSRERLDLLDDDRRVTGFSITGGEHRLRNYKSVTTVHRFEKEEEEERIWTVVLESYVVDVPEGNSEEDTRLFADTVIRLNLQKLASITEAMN
| Change | relative binding score [%] |
| --- | --- |
| R98E | 93.5 |
| E127D | 112 |
| V145N | 60.5 |
| R113M | 107 |
| K58E | 95.2 |
| G107C | 62.8 |
| G71M | 53.3 |
| S171M | 95.5 |
| I33P | 0.29 |
| G108E | 30.4 |
| E129W | 91.6 |
| L166V | 9.72 |
| R24I | 94.3 |
| L91N | -8.81 |
| R90C | 81.7 |
| C60A | 85.3 |

Block 2
Target: RNA binding protein fox-1 homolog 2, RRM domain, GST-SBP tag (RBFOX2, Homo sapiens, UniProt O43251-10, residues 100-194)
Technique: RNA Bind-n-Seq
Form: RNA
Medium: in vitro
Tested at: 365 nM
Notes: natural RNA segment, single round, ends assumed
Relative to: no-protein control
Direction: higher = stronger binding
Constant ends, left off below: GGGAGUUCUACAGUCCGACGAUC … UGGAAUUCUCGGGUGCCAA
Residues (chain): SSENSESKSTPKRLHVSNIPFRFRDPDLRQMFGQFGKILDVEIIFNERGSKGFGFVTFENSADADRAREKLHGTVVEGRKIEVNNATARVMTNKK
| Oligonucleotide | RBNS enrichment (R) |
| --- | --- |
| UCCUGUUAACCAAAUGGUUACUGCACUACCAGGGUUACUGGUUUAUUUUCCAGGGAGCUGAUAAAGCAGGAGAACUGUUGCUGCAUGUUUUCUAUUUGGACUCCGUCACA | 1.71 |
| UAAGUGUAUGUAUGUGUGUGCGUGUGUGUGUGUCUUCUUAAAGAAGAUGUAAUUCACAAAUAGUUUAGCUCCCUAGCGCUCAGUUGUAGAAUAGAAAAUAGAACAUUAUU | 1.4 |
| CUAGAGCUAGCAGUUCCCAUUCAGGCAAACAAGGGCAGUGGUUUUGUUUGUGUUUUUGGUUGUUCCUAAAGCUUGCCCUUUGAGUAUUAUCUGGAGAACCCAAGCUGUCU | 0.404 |
| UAGUAUUUUUCUUUUGGAAAUGUGCCUUAUGUUAAACACUAUGUACUUUUACUUUUUGCAUUGUCCAGACUUCUUUAUUAGAUGGAGAUGUUUCUUUUUCUGUCUUCUAG | 0.315 |
| UUACAGCACUUGGGAUUGUGUUUUCUUGUACAUUUUGUAUUUUAAAAAUCUUUUAUAGGAGUGCAGUGCUCCUAUACAAAGGGAAGAUGAGCCAGCAGUCCAGGCUCCUC | 0.599 |
| AAACAGUGGGGCCAGCUGCCCUGGUAUUCCAGAUACCCUGAAGCGUCUCCGUGCAGAUCUUGAAGAGAAAGAACCUCGGCUGCUGUGCUGGGGUUGAACAGAGCCUCCCA | 0.313 |
| UAUUGACAAUUGUCAUCAUGAAAUUACCCCUGAAUAAUCAGGUAAAUAAAGGAGUAUAUGAAUAGCAUUUGCCUCUCCUAAUCCUUACUGGCUGAACUUUCUUUGUUCCA | 0.583 |
| UUGAAAGAAGUUUCAUUAAAAGCACCAUUGCUUUCUGUACUGCGUCAGUGCCUCAUUGUAUCAUCCUACUUGUGUUUUGCUCAAUAAAUGAAUAAAAGACCAUUUCUCUU | 0.34 |

Block 3
Target: Interferon regulatory factor 5, full length, phosphomimetic (IRF5, Homo sapiens, UniProt Q13568-2, residues 1-514, S451D/S453D/S456D/S462D)
Technique: protein-binding microarray
Form: double-stranded DNA, one strand shown
Medium: in vitro
Tested at: 940 nM top
Notes: 60-bp whole probe
Together with: salmon DNA 0.4 mg/ml
Relative to: random background probes
Direction: higher = stronger binding
Constant ends, left off below: GCCTAGCAC … GTCTTGATTCGCTTGACGCTGCTG
| Oligonucleotide | fitted relative affinity |
| --- | --- |
| GTCGGTTTCCTTTCCCTGACGTGCTAG | 4.36 z-score |
| TCAATCTTCAAGACTCATACTGTGCTA | 0.17 z-score |
| TTAGAACTGGGGTTTCAATTAGTGCTA | 1.21 z-score |
| TCAGGGCTACCTCTCTTACTGTGCTAG | -0.589 z-score |
| GACGGTTTCGACTATCGCGACGTGCTA | 8.64 z-score |
| TGAGATATCAGACTGGATTAGTGCTAG | -0.514 z-score |
| TCAAGGATGGTTTTCAGACTGTGCTAG | -0.535 z-score |
| GACGAACTGGGGACTGGAGACGTGCTA | 0.0364 z-score |
| GACGAACTGAGTTTTGAGACGTGCTAG | -0.11 z-score |
| CACGGACTGCTTCTCCTGACGTGCTAG | -0.182 z-score |
| GACGGTTTACTTCTCCTGACGTGCTAG | 0.508 z-score |
| GACGGTTTCGCTATCGGGACGTGCTAG | 7.92 z-score |

Block 4
Target: CREB3L3, bZIP domain (human)
Technique: DHFR protein complementation
Medium: yeast
Notes: single substitutions, most at no-binding floor
Relative to: wild-type JUN-FOS pair
Direction: higher = stronger binding
Starting sequence: JUN, bZIP domain (human); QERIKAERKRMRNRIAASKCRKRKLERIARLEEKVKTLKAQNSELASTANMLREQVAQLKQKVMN; partner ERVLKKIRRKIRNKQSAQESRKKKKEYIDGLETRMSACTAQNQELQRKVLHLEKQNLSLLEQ
| Change | binding fitness |
| --- | --- |
| T48W | -1.39 natural log |
| L31Q | -1.53 natural log |
| V56G | -1.52 natural log |
| I28N | -1.51 natural log |
| L31G | -1.52 natural log |
| E32K | -1.61 natural log |
| E32Q | -1.46 natural log |
| L38H | -1.47 natural log |
| E44N | -1.53 natural log |
| L59T | -1.01 natural log |
| A40Y | -1.49 natural log |
| K39T | -1.51 natural log |
| S43E | -1.42 natural log |
| E33V | -1.49 natural log |

Block 5
Target: Histone acetyltransferase KAT6A, winged helix 1, GST fusion (KAT6A, Homo sapiens, UniProt Q92794, residues 1-85)
Technique: protein binding microarray
Form: double-stranded DNA, one strand shown
Medium: in vitro
Tested at: not given
Notes: 8-mer, flanks averaged, mean of 2 arrays, mostly near background
Relative to: not given
Direction: higher = stronger binding
Target sequence (chain): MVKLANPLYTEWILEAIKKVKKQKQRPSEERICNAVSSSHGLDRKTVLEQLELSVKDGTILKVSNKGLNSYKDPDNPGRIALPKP
| Oligonucleotide | E-score |
| --- | --- |
| TACATAAA | -0.161 |
| CGTTATAG | -0.0457 |
| CTGGATCC | 0.00703 |
| ATGGCCTA | 0.0753 |
| CGTCCAGC | -0.0165 |
| AACCTAAC | 0.0867 |
| AGAAGGGG | -0.216 |
| CATTCACG | 0.0642 |
| CAAAGACG | 0.0907 |
| TGTACCAA | -0.0806 |
| CAAGTCAG | -0.223 |
| AGCAACCG | 0.021 |
| CGCCCCAG | 0.0689 |
| CGACGGTC | 0.337 |
| ATCCCTAC | -0.0591 |
| GGTGTTCA | -0.0542 |

Block 6
Target: CCNF, cyclin fold, Cln2 fusion (human)
Technique: yeast growth competition, sequencing
Medium: yeast
Notes: weak parent motif
Relative to: not given
Direction: higher = stronger binding
Starting sequence: PKN2 docking peptide (human); VSAVQKLDFSDTM
| Change | normalised enrichment score |
| --- | --- |
| VSAVQWLDFSDTM [K6W] | 0.247 |
| VSAVQKLLFSDTM [D8L] | 2.35 |
| VSAVQKLAFSDTM [D8A] | 0.569 |
| VSASQKLDFSDTM [V4S] | -0.587 |
| VSAVQKLDFSDGM [T12G] | 0.468 |
| VSAVQKLDFSFTM [D11F] | 0.843 |
| VSAVQKLDLSDTM [F9L] | 0.0154 |
| VSAVQKLDFSDTC [M13C] | 0.664 |
| VSAVQKFDFSDTM [L7F] | -0.281 |
| VSAVQKLDFSCTM [D11C] | 1.93 |
| VSAVQGLDFSDTM [K6G] | 0.25 |
| VSAVQKSDFSDTM [L7S] | -0.0655 |
| VSAVQKLDFSDTV [M13V] | 0.933 |
| VSAVQKLDFCDTM [S10C] | 0.502 |
| VSAVQKLDFSDTP [M13P] | -0.3 |
| VSTVQKLDFSDTM [A3T] | -0.14 |
| VWAVQKLDFSDTM [S2W] | 1.05 |

Single results of other studies
| Substance | target | assay | test system | setting | scale | measurement | value |
| --- | --- | --- | --- | --- | --- | --- | --- |
| PhoQ, residues 284 288 289 292 302 303 TLASMF | PhoP, residues 12 14 15 18 19 LHSVQ (Escherichia coli, UniProt P23836) | Sort-seq, item: YFP reporter | E. coli | PhoQ-PhoP variant library, together with: 10 µM Mg2+ | relative to: high Mg2+ state, higher = stronger signaling | fold induction | 5.41 |

Repeated from above (block 6):
| Change | normalised enrichment score |
| --- | --- |
| VSTVQKLDFSDTM [A3T] | -0.14 |
| VSASQKLDFSDTM [V4S] | -0.587 |
| VSAVQKFDFSDTM [L7F] | -0.281 |
| VSAVQKLAFSDTM [D8A] | 0.569 |
| VSAVQKSDFSDTM [L7S] | -0.0655 |
| VSAVQKLDFSDTC [M13C] | 0.664 |
| VSAVQKLDFCDTM [S10C] | 0.502 |
| VSAVQKLDFSDGM [T12G] | 0.468 |
| VSAVQKLDFSCTM [D11C] | 1.93 |
| VSAVQKLDFSDTP [M13P] | -0.3 |
| VSAVQKLDLSDTM [F9L] | 0.0154 |
